Measured values gathered from unrelated publications.
A part holds a random share of what one study measured. Changes are numbered by the printed parent chain.

Block 1 — technique: aptamer microarray, sandwich; molecule type: DNA with 2'F-ANA; matrix: in vitro; tested at: 200 nM; with: Cy3 exosite-II aptamer, 400 nM; direction: higher = stronger binding; sequence: GGTTGGTGTGGTTGG
Target: Prothrombin, mature alpha-thrombin (F2, Homo sapiens, UniProt P00734)
Setting: whole 15-mer aptamer, many near background
Modification | mean fluorescence intensity [a.u.]
2'F-ANA at 1 3 4 5 6 10 11 13 | 48.5
2'F-ANA at 1 2 3 5 6 7 9 13 15 | 53.2
2'F-ANA at 2 4 7 15 | 416
2'F-ANA at 2 3 4 6 8 13 14 15 | 374
2'F-ANA at 1 3 4 6 8 10 14 15 | 54.1
2'F-ANA at 3 9 13 | 983
2'F-ANA at 1 2 3 4 6 9 11 12 14 15 | 62.3
2'F-ANA at 2 3 4 5 6 9 11 12 14 15 | 184
2'F-ANA at 4 6 7 8 10 11 15 | 76.1
2'F-ANA at 1 3 5 6 7 10 13 15 | 44.1
2'F-ANA at 4 6 8 10 11 13 14 | 56.1
2'F-ANA at 2 3 5 7 11 | 129
2'F-ANA at 1 3 4 5 6 10 11 | 48.4
2'F-ANA at 1 2 5 6 7 8 9 10 12 14 15 | 52.8
2'F-ANA at 1 6 7 8 9 10 12 13 14 15 | 48.8
2'F-ANA at 3 4 9 11 13 14 15 | 269
2'F-ANA at 2 3 5 7 9 10 12 15 | 64.8
2'F-ANA at 1 3 4 6 7 10 11 13 15 | 87
2'F-ANA at 1 2 4 7 9 10 11 12 14 15 | 284
2'F-ANA at 1 2 3 4 5 9 11 13 14 | 55.5

Block 2 — target: CCNE1, cyclin fold, Cln2 fusion (human); technique: yeast growth competition, sequencing; matrix: yeast; setting: strong parent motif; baseline: not given; direction: higher = stronger binding
Parent: DBF4B docking peptide (human); LGYLYLLLTQSLW
Substitution | normalised enrichment score
S11A | 1.19
T9A | 1.19
G2A | 0.773
Y3A | 0.854
W13A | 0.655
L1A | 1.45
L4A | 1.2

Block 3 — technique: RNA Bind-n-Seq; molecule type: RNA; matrix: in vitro; tested at: 200 nM; setting: whole 134-nt RNA, ends assumed; with: 150 mM LiCl; baseline: input library; direction: higher = stronger binding; all molecules: 7-deaza-guanosine replaces G
Target: Fragile X messenger ribonucleoprotein 1, C-terminal low-complexity region (Fmr1, Mus musculus, UniProt P35922)
All sequences stand within: GGGAGUUCUACAGUCCGACGAUC … UGGAAUUCUCGGGUGUCAAGG
Sequence | log2 enrichment
CUGUGCUACACAUCGUAUGUACCGAAUCGGGGAAAAAAGGGGAAAAAAGGGAAAAAAGGGGAAAGUAUUAUGUUACGCCGUUCGGAUCUG | 1.02
AAGUCCUGUGCUACACAUCGUAUGUACCGAAUCAAAUUUAAAUUUAAACCCCCAAAAAAGUAUUAUGUUACGCCGUUCGGAUCUGCACUU | 1.08
CUCAAGUCCUGUGCUACACAUCGUAUGUACCGAAUCGGUUUGGUGGUUUUUGGAAAGUAUUAUGUUACGCCGUUCGGAUCUGCACUUCCA | -0.0559
ACCAUGCAGGUGGGCAUCUUUGGGAAGUGGGGCAAGGGGGGGAUAGGGAGGGGGGUAACAAAUUGGGAACAGGUGGUCCCAGGUCGUUUC | 1.52
GUCCUGUGCUACACAUCGUAUGUACCGAAUCGGGGUUUUGGGUUUUGGGGUUUUGGGGAAAGUAUUAUGUUACGCCGUUCGGAUCUGCAC | -0.233
UGUUUUAAGGUUGCCAACUUUGCAACAAUGGAAGAUGAAGAAGAGCUAGAAGAGCGUCCUCACAAGGACUGGGAUGAGAUCAUUCCAGAG | -2.4
UGCGAGGUGGAUUUUGUUUAUUUUUUUAGCUCAUUUCCAGGGGUGGGAAUUUUUUUUUAAUAUGUGUCAUGAAUAAAGUUGUUUUUGAAA | 0.583
UCCCUAUUCCAGUCAUACACGUGGACCUAACUGCACCAGUAGCUUUUCUGAGAAUACUUGCUGAAAAGGAAGUUUUCUGGAAUGGGUAAG | -0.969

Block 4 — technique: protein binding microarray; molecule type: double-stranded DNA, one strand shown; matrix: in vitro; tested at: not given; baseline: not given; direction: higher = stronger binding
Target: Histone acetyltransferase KAT6A, winged helix 2, GST fusion (KAT6A, Homo sapiens, UniProt Q92794, residues 85-181)
Setting: 8-mer, flanks averaged, mean of 2 arrays, mostly near background
Construct (chain): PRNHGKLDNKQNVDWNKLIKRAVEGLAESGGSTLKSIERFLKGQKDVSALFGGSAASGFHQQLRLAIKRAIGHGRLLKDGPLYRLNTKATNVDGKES
Sequence | E-score
CCCTTAGG | 0.101
AGCGTATG | -0.202
AACAGCCC | -0.0829
GCCGCTTA | 0.038
TAGCGATA | 0.0272
CACTGAGA | -0.0625
ACTTATGC | -0.0805
TAAGAAAA | 0.127
CCCTGGTC | 0.0685
AAGCTCAG | -0.0301
AAATTCAC | -0.0365
ATCTACGA | -0.122
ACGTGGCT | -0.129
CATAGCCA | 0.025
CGCTGGAA | 0.162
CCTCACGA | -0.0274
CGTGCTCA | 0.125
CCGGTAGG | 0.105
GGCGTAGA | -0.122
ATGATACG | 0.0888
AGTATCGC | 0.0408
GTTTCCGA | 0.119
AACAGACG | -0.121
GGAATTGA | -0.00234
GAAGTTCC | -0.186

A few entries again (block 1):
Modification | mean fluorescence intensity [a.u.]
2'F-ANA at 2 4 7 15 | 416
2'F-ANA at 1 2 3 4 5 9 11 13 14 | 55.5
2'F-ANA at 1 2 5 6 7 8 9 10 12 14 15 | 52.8
2'F-ANA at 1 2 4 7 9 10 11 12 14 15 | 284
2'F-ANA at 2 3 4 5 6 9 11 12 14 15 | 184
2'F-ANA at 1 3 4 5 6 10 11 13 | 48.5
2'F-ANA at 2 3 4 6 8 13 14 15 | 374
2'F-ANA at 1 3 5 6 7 10 13 15 | 44.1
2'F-ANA at 2 3 5 7 11 | 129
